Results of several laboratories.
Protocols differ between the studies behind these lines. ± marks the error that the study gave.

CC[n+]1cccc2cc(/C=N/NC(=O)c3ccc4ccc5ccc(C(=O)N/N=C/c6ccc7c(ccc[n+]7CC)c6)nc5c4n3)ccc21 — ΔTm (MYC parallel G4 DNA; FRET melting; 1 µM, DNA 0.2 µM, with: duplex DNA competitor 10 µM): 19.3 ± 0.3 °C
CNS(=O)(=O)Nc1nccc(Cc2c(C)c3ccc(Oc4ncccc4F)cc3oc2=O)c1F — IC50 (SW1088; cell viability; 7 days): 47.5 nM
O=C(N/N=C/c1ccc2c(ccc[n+]2Cc2ccccc2)c1)C(=O)N/N=C/c1ccc2c(ccc[n+]2Cc2ccccc2)c1 — ΔTm (MYC parallel G4 DNA; FRET melting; 1 µM, DNA 0.2 µM): 4.3 ± 0.7 °C
Cc1ncsc1-c1ccc(C(C)NC(=O)C2CC(O)CN2C(=O)C(NC(=O)CCCCCCCCCCN2CCCC(Nc3ncc(Cl)c(Nc4ccccc4S(=O)(=O)C(C)C)n3)C2)C(C)(C)C)cc1 (stereo not drawn) — log2 fold change (22Rv1; RNA-seq, measured: SGO1-AS1; concentration not given; baseline: DMSO): -1.01
Nc1ncc(-c2cc(-c3cnn(CC(F)(F)F)c3)ncc2F)nc1C(=O)NC1CNCC(F)C1 (stereo not drawn) — remaining binding (NLK; KINOMEscan; 1 µM; baseline: DMSO control): 86%
COC1CN([C@H]2CC[C@H]([C@@]3(C)Oc4c(Cl)cc(C(=O)NCc5c(SC)cc(C)[nH]c5=O)c(C)c4O3)CC2)C1 — log2 fold change (RNA-seq, measured: SHANK3; human, whole blood; dose not given, 24 h; baseline: pretreatment baseline): 1.79
C=CC(=O)Nc1cccc(Cn2ncc3cnc(Nc4cnn(CCOC)c4)nc32)c1 — binding (human FLT3-autoinhibited; KINOMEscan; 100 nM; baseline: control): 75%
C[n+]1ccc(/C=N/NC(=O)c2cc(C(=O)N/N=C/c3cc[n+](C)cc3)ncn2)cc1 — ΔTm (hp2 hairpin duplex DNA; FRET melting; 1 µM): 0.2 ± 0.1 °C
O=C(CSc1cccc[n+]1[O-])c1ccccc1Br — Emax (Mus musculus; gene silencing, high-content imaging; LDR reporter GFP cells; 30 h, retest run 1): 126%

Repeated from above:
CNS(=O)(=O)Nc1nccc(Cc2c(C)c3ccc(Oc4ncccc4F)cc3oc2=O)c1F — IC50 (SW1088; cell viability; 7 days): 47.5 nM
